Published values collected from several papers.
Several values in a cell are separate wells, animals, samples, runs or records. Numbers after ± are the reported error.

SMILES | test | system | setting | AUC(0-t)
CC#CC(=O)N1CCC[C@H]1c1nc(-c2ccc(C(=O)Nc3ccccn3)cc2)c2c(N)nccn12 |  | Japanese patients, plasma | oral, 100 mg single dose, fasting, geometric mean | 962 ng·h/mL
CC(C)=CCC[C@](C)(O[C@@H]1O[C@H](CO)[C@@H](O)[C@H](O)[C@H]1O)[C@H]1CC[C@]2(C)[C@@H]1[C@H](O)C[C@@H]1[C@@]3(C)CC[C@H](O[C@@H]4O[C@H](CO)[C@@H](O)[C@H](O)[C@H]4O)C(C)(C)[C@@H]3CC[C@]12C | LC-MS/MS | healthy male volunteers, serum | oral, 3 g fermented red ginseng | 29.2 ± 43.2 ng·h/mL
C#C[C@]1(O)CC[C@H]2[C@@H]3CCc4cc(O)ccc4[C@H]3CC[C@@]21C |  | HIV-positive women, control arm, serum | oral, 30 µg with levonorgestrel, 72 h, steady state | 3.27 ± 0.744 ng·h/mL
CC(C)=CCC[C@](C)(O[C@@H]1O[C@H](CO)[C@@H](O)[C@H](O)[C@H]1O)[C@H]1CC[C@]2(C)[C@@H]1[C@H](O)C[C@@H]1[C@@]3(C)CC[C@H](O[C@@H]4O[C@H](CO)[C@@H](O)[C@H](O)[C@H]4O[C@@H]4O[C@H](CO)[C@@H](O)[C@H](O)[C@H]4O)C(C)(C)[C@@H]3CC[C@]12C | LC-MS/MS | healthy female volunteers, serum | oral, 3 g red ginseng | 10.8 ± 11.8 ng·h/mL
Cc1[nH]c(/C=C2\C(=O)Nc3ccccc32)c(C)c1CCC(=O)O |  | Japanese patients, plasma | oral, 1200 mg/m^2, day 8 | 32900 ± 16200 ng·h/mL
CCC[C@H](N[C@@H](C)C(=O)N1[C@H](C(=O)O)C[C@@H]2CCCC[C@@H]21)C(=O)OCC |  | healthy Chinese volunteers, plasma | oral, 4 mg, up to 6 h, fasting, with: indapamide 1.25 mg | 51.4 ± 12.8 ng·h/mL
C#C[C@]1(O)CC[C@H]2[C@@H]3CCC4=CC(=O)CC[C@@H]4[C@H]3CC[C@@]21CC |  | HIV-positive women, control arm, serum | oral, 150 µg with ethinylestradiol, 72 h, steady state | 243 ± 83 ng·h/mL
O=C(c1cc(Cl)c(O)c(Cl)c1)N1CS(=O)(=O)c2ccccc21 |  | healthy Chinese adults, fasted, plasma | oral, 10 mg single dose | 12900 ± 2130 ng·h/mL
Cc1nc2cccc(N)c2c(=O)n1C1CCC(=O)NC1=O (centres unmarked) |  | healthy adults, plasma | oral, 3 mg, fasted geometric mean alone | 675 ng·h/mL
Cc1nc(Nc2ncc(C(=O)Nc3c(C)cccc3Cl)s2)cc(N2CCN(CCO)CC2)n1 |  | patients, plasma | oral, 100 mg, day 0, given alone, geometric mean | 476 ng·h/mL
O=C(N[C@H]1CCN(CC2CC2)C[C@@H]1C(=O)NC1(c2ncccn2)CC1)c1cc(-c2ccc(F)cc2F)on1 |  | healthy male subjects | oral, 10 mg, fed, geometric mean, with: itraconazole 200 mg multiple doses | 862 ng·h/mL
Cc1ccc(NC(=O)c2ccc(CN3CCN(C)CC3)cc2)cc1Nc1nccc(-c2cncc(-c3oncc3C)c2)n1 |  | Parkinson's disease patients, plasma | oral, 100 mg once daily, day 1, 7-day dosing, mean | 50200 ng·h/mL
CS(=O)(=O)c1ccc([C@@H](O)[C@@H](CF)NC(=O)C(Cl)Cl)cc1 |  | chicken, HY-Line Brown hens, plasma | oral, 20 mg/kg | 24200 ± 2450 ng·h/mL
CC[C@H](C)[C@H](NC(=O)[C@H](CCC(=O)O)NC(=O)[C@H](CO)NC(=O)[C@@H](NC(=O)[C@@H](N)CO)C(C)C)C(=O)N[C@@H](CCC(N)=O)C(=O)N[C@@H](CC(C)C)C(=O)N[C@@H](CCSC)C(=O)N[C@@H](Cc1cnc[nH]1)C(=O)N[C@@H](CC(N)=O)C(=O)N[C@@H](CC(C)C)C(=O)NCC(=O)N[C@@H](CCCCN)C(=O)N[C@@H](Cc1cnc[nH]1)C(=O)N[C@@H](CC(C)C)C(=O)N[C@@H](CC(N)=O)C(=O)N[C@@H](CO)C(=O)N[C@@H](CCSC)C(=O)N[C@@H](CCC(=O)O)C(=O)N[C@@H](CCCN=C(N)N)C(=O)N[C@H](C(=O)N[C@@H](CCC(=O)O)C(=O)N[C@@H](Cc1c[nH]c2ccccc12)C(=O)N[C@@H](CC(C)C)C(=O)N[C@@H](CCCN=C(N)N)C(=O)N[C@@H](CCCCN)C(=O)N[C@@H](CCCCN)C(=O)N[C@@H](CC(C)C)C(=O)N[C@@H](CCC(N)=O)C(=O)N[C@@H](CC(=O)O)C(=O)N[C@H](C(=O)N[C@@H](Cc1cnc[nH]1)C(=O)N[C@@H](CC(N)=O)C(=O)N[C@@H](Cc1ccccc1)C(=O)O)C(C)C)C(C)C |  | postmenopausal women, osteoporosis, plasma | subcutaneous, 56.5 µg once weekly | 0.883 to 1.18 ng·h/mL
CNC(=O)c1ccc(-c2cnc3ncc(Cc4ccc5ncccc5c4)n3n2)cc1F |  | mild hepatic impairment | oral, 200 mg, geometric mean | 4730 ng·h/mL
CCCN1CC(c2ccc(S(C)(=O)=O)cc2)=C(c2ccc(C)cc2)C1=O |  | healthy Chinese, non-elderly, plasma | oral, 100 mg | 137 ng·h/mL
Nc1nnc(CN[C@@H]2C[C@H]2c2ccc(OCc3ccccc3)cc2)o1 |  | healthy young adults | oral, 1.0 mg/day, day 1, multiple dose, mean | 95.1 ng·h/mL
Cc1nc(-c2ccc(OCC(C)C)c(C#N)c2)sc1C(=O)O |  | healthy Chinese adult volunteers, plasma | oral, 20 mg single dose, fasting | 3500 ± 757 ng·h/mL
CC1Cc2ccccc2N1NC(=O)c1ccc(Cl)c(S(N)(=O)=O)c1 (centres unmarked) |  | healthy Chinese volunteers, plasma | oral, 1.25 mg, up to 48 h, fasting, with: perindopril tert-butylamine 4 mg | 254 ± 83.8 ng·h/mL
C[C@H]1Oc2cc(cnc2N)-c2c(nn(C)c2C#N)CN(C)C(=O)c2ccc(F)cc21 |  | healthy adults | oral tablet, 100 mg single dose, fasted, adjusted geometric mean | 7980 ng·h/mL
NC(=O)c1cnc2[nH]ccc2c1N[C@@H]1[C@@H]2CC3C[C@H]1C[C@@](O)(C3)C2 |  | healthy Caucasian men, plasma | oral, 60 mg, single dose fasted | 524 ng·h/mL
CCC[C@H](N[C@@H](C)C(=O)N1[C@H](C(=O)O)C[C@@H]2CCCC[C@@H]21)C(=O)O |  | healthy Chinese volunteers, plasma | oral, 4 mg perindopril tert-butylamine, up to 48 h, fasting, with: indapamide 1.25 mg | 108 ± 34.7 ng·h/mL
COc1cc2c(cc1OC)CN(CCc1ccc(NC(=O)c3cc(OC)c(OC)cc3NC(=O)c3cnc4ccccc4c3)cc1)CC2 |  | human, plasma | intravenous infusion, 6 mg/kg, up to 24 h post-infusion | 16200 ng·h/mL and 20000 ng·h/mL and 18000 ng·h/mL and 20100 ng·h/mL
O=C(NC[C@H](O)CO)c1ccncc1Nc1ccc(I)cc1F |  | patients, plasma | oral, 45 mg single dose, day 8, median, alone | 1270 ng·h/mL
CCC(CC)O[C@@H]1C=C(C(=O)O)C[C@H](N)[C@H]1NC(C)=O |  | healthy Indian subjects, fed, plasma | oral, 75 mg oseltamivir phosphate, 0 to 48 h, test capsule formulation | 3770 ± 656 ng·h/mL
O=C(O)C[C@H](O)C[C@H](O)/C=C/c1c(C2CC2)nc2ccccc2c1-c1ccc(F)cc1 |  | healthy Chinese female volunteers, plasma | oral, 2 mg once daily, multiple dose | 321 ng·h/mL

For quick reference, copied from above:
SMILES | test | system | setting | AUC(0-t)
O=C(c1cc(Cl)c(O)c(Cl)c1)N1CS(=O)(=O)c2ccccc21 |  | healthy Chinese adults, fasted, plasma | oral, 10 mg single dose | 12900 ± 2130 ng·h/mL
Cc1nc2cccc(N)c2c(=O)n1C1CCC(=O)NC1=O (centres unmarked) |  | healthy adults, plasma | oral, 3 mg, fasted geometric mean alone | 675 ng·h/mL
Cc1nc(Nc2ncc(C(=O)Nc3c(C)cccc3Cl)s2)cc(N2CCN(CCO)CC2)n1 |  | patients, plasma | oral, 100 mg, day 0, given alone, geometric mean | 476 ng·h/mL
